Results collected from several papers.
Every numbered part comes from another study and shows a few of its results, in no order. Positions count from the first letter of the parent shown.

Series 1
Target: Sal-like protein 4, full length isoform A (SALL4, Homo sapiens, UniProt Q9UJQ4, residues 1-1053)
Sequence of UniProt Q9UJQ4 (whole entry, looked up): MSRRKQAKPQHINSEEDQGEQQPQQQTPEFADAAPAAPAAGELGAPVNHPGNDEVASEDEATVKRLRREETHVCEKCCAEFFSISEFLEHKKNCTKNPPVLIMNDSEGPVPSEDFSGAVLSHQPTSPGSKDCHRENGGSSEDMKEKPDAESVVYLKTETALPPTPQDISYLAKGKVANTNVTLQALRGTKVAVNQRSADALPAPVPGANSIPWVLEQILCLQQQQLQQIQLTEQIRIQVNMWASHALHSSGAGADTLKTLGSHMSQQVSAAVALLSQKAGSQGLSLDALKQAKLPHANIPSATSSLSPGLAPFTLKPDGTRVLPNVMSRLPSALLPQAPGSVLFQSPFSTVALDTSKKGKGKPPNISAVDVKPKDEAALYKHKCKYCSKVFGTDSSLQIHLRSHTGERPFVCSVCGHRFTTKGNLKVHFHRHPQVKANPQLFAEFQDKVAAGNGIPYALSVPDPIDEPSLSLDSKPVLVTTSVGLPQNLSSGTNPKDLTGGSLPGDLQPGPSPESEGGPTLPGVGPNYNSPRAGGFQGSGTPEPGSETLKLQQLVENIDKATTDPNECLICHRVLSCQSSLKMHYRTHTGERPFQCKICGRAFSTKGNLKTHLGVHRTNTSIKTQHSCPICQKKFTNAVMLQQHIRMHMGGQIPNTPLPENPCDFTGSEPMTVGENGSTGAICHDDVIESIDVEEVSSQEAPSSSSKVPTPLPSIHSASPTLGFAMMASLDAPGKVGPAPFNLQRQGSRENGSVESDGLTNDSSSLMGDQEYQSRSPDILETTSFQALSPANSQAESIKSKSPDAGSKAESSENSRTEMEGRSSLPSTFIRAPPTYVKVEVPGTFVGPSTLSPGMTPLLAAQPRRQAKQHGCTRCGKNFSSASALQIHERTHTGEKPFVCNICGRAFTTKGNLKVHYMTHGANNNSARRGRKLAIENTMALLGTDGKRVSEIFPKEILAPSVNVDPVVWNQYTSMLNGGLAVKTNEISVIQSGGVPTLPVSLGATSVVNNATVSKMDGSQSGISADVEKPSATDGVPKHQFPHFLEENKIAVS
Technique: universal PBM
Form: double-stranded DNA, one strand shown
Medium: in vitro
Concentration: 600 nM
Setting: 8-mer, flanks averaged, mean of replicates
Direction: higher = stronger binding
Strand	E-score
CCTCTGGA	-0.175
TACCCCAA	-0.162
ATGCGACC	-0.0128
ACTGACAG	0.0414
ACTAGGGG	-0.249
GAATAAAC	0.33
CAATGCGC	-0.00828
ACTGAGAG	-0.116
AATGAATG	0.309
CCGCGGCA	-0.211
ATGTCCGG	-0.158
CCTCCGGA	-0.293
CTTAGGTC	-0.144
ACTTACAC	0.0739
GACCCCCA	-0.34
ACTAAATC	0.156
GCTCATAC	0.0504
ACCCAGCC	-0.32
AATGTACG	0.00192
AGTCCCAG	-0.277
CAATTTGG	0.0824
GATAAGAA	0.278

Series 2
Target: Hepatocyte nuclear factor 3-alpha (Foxa1, Mus musculus, UniProt P35582, residues 1-468, full length assumed)
Technique: EMSA with sequencing
Form: double-stranded DNA, one strand shown
Medium: in vitro
Concentration: 10 and 20 nM
Setting: whole designed probe, mean of two concentrations, ends assumed
Relative to: negative control set to 0
Direction: higher = stronger binding
All sequences stand within: GTGAGCGGTGCCCATTGATGGGGAAC … TTTCACTGGGATCGTGGGGAC
Residues (chain): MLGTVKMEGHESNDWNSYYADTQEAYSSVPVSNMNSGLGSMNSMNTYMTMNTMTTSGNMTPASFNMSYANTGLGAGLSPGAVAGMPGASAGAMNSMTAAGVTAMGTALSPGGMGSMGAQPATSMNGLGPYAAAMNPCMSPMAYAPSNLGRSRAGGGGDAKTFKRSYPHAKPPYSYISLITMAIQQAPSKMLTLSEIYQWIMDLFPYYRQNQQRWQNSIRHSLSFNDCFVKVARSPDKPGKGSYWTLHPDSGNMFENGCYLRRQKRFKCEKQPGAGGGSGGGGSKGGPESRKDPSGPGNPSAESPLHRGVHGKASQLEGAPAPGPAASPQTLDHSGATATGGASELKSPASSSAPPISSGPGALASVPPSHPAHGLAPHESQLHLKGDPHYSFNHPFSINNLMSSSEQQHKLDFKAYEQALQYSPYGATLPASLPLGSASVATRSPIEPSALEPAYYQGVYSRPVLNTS
Strand	normalised bound fraction
ACGGAGATTGCAGAGTGACTGTTCCCCTGGGGGACCCTAGGCTTGTCCTCGCGTTACCTTTGTCCCATCAGTTGCTGCTCTGGCTGGGGAAGTAGATTACATTGGCTGCTGTGTGCTGCTGCTAGGAATTTTGAGGAGTGTGCACTTTTTTTTTTTTTTTTTTGCTGTTGTTGAGGCGGAGTCTCGCTCTGTC	-0.0574 ratio
TAAGTAATGCATTTCTGTGATTCAACAAAGATCTATCTCACAGAGATATCTCATTCTGCTCCCTTCCCCCAGTCACATTCTTCTTTGTCTTATGTAAACATGTCTTGTTTTTTTTTGTTTGCTTCTTGTTTATCCTTCAAGTGGGTTTTTTGTTTTTTGTTCTGTCACTATTATATATTTCTCTTCACTCCTG	0.504 ratio
CGTATTTCTTCTTGTACAGAATATGTATCTGGGGGCATTGTAGAGTTTTGATATATATTTGATGAACTACTGAATAAATATTCTTATGTTTTCATGTTTACTTTTCTATACATATTTCCCCCTTCCTGAGATAACTCTTCGTTTCCCCCCAAAATACCTAAAACAATGAAGTTTTGAGCCGAGCTTTTTGAGC	0.475 ratio
GTCATTTATTTCATGTTGTCCTGAGATTGGATCTAAACTTTGAGCTCCTAATCATCGCTCAGATTGTGTGGCCTCGTAAGATTGTGCGTAATAAGTAATCTAGCATCTGTACACTTGTTAACTTAATGAGCTTCTGTATGTGACACTTTAAGCCTTTTTAAAAATTAAGTGCTGGGCTATGCTTGGTGTCTCA	-0.0411 ratio
CAATAAGTCAGTCACCGTGAAGCATTCTAAGCACTGAATAAGACAGAGCATCCATTCCACACCCTATTTCCATTCCCAGTTAATCTTCAAAGAGTCAACATGGCAAAAACATTCCAAGATAAAAATAGCAAGATCTTCTAGAAAAGATTTAAGTTTCAAGGCAAAAAGAAAAATCCTTTATGGTTACTGAGTA	0.0478 ratio
ATCTTCCCCCTCTTCCTTGCCCCACCAGCTCACCTTCCCGGGTTGTTTACTTTGAGGAAAATAAATAAAGCCGGCATTCGTTAACCCTCTTCTGGCGCAAACTGCACATTGGTCTGGATGAATCATGGTCCTTTGGCGACGCCAGGCTCCGGGAGAGCAAAGCACCGTGTCAGGGCCATGATCCGGGGTGGCC	0.348 ratio
CTTCAAAGTAGCTCCCATATGGACTGAATATAGGATACGAGCCTCTGCCTAGCCTTCAGTCCTTTTTGTTTGGTTTAGGTGTTGGTTGTCTTTGTAAACACTGGAAGCTGCTGAGTGTTCTCCCTCGGCTTTTTCCATCACACTTTACCCCACATACATTCATACACACTTGGCTCAAGCTTTTCGGTTCTTT	0.361 ratio
TCGGCCAGCCTGGCTTCTGCGCCCCGCCAGGAGGTCGCGGAGCGGAGCGCGGCCAGGAAGTGAGCTGAGAGTGACAGCTCCCCCCACGCGAGAATAAACAAACATCCACACACTGGATGACTCATTCCTCTTCTTTCTTTCGGGAGGAGGGGAGAAAGGAGCGGGAGGGCGGGCGGGCAGGGGAGAGGCAGGC	0.303 ratio

Series 3
Target: ABI1, truncated, D143A, DHFR fusion (Arabidopsis thaliana)
Technique: DHFR PCA, deep sequencing
Medium: yeast
Setting: methotrexate growth selection, single substitutions
Added: (+)-ABA 200 µM
Relative to: wild-type fitted maximum
Direction: higher = stronger binding
Parent: PYL1, truncated, DHFR fusion (Arabidopsis thaliana); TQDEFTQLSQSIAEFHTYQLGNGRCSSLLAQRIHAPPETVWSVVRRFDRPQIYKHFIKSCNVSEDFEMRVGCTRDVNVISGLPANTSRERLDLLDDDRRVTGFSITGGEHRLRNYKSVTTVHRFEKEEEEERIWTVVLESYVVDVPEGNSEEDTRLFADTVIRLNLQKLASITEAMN; partner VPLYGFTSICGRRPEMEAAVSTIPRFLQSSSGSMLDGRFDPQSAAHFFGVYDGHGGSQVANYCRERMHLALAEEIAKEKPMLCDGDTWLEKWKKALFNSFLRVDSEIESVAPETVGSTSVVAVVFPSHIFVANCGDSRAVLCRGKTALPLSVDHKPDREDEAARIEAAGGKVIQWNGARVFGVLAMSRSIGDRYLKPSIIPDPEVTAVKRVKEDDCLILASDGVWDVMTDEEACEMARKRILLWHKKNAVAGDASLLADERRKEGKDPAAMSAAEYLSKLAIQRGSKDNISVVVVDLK
Change	relative binding score [%]
R99L	111
F157A	7.01
N149Q	55.7
V44A	77.8
A84D	26.3
L93V	105
S27A	92.6
T6C	94.8
G108N	48
R98L	102
L169C	29.3
V100C	99.6
V78K	7.98
V76K	-8
V100E	9.09
A158P	2.27
C25Q	58.2

Series 4
Target: CCNA1, cyclin fold, Cln2 fusion (human)
Technique: yeast growth competition, sequencing
Medium: yeast
Setting: weak parent motif
Relative to: not given
Direction: higher = stronger binding
Parent: GMNC docking peptide (human); KNAKRNLSSEFAN
Change	normalised enrichment score
R5C	-0.127
F11A	0.525
N2Y	0.474
N2K	1.28
N6Y	-0.292
A3G	0.573
N6K	0.0555
S9E	0.2
R5W	0.319
A12F	0.276
N2G	0.742
A12K	0.0827
N2E	0.457
K4R	1.06
F11D	0.452
R5Q	0.152
R5S	0.267
A3R	0.179
L7K	0.215
S8E	0.327
E10K	0.144
S9G	0.484
S9R	0.766
L7Q	0.155
A3P	-0.723

Series 5
Target: ATF1, bZIP domain (human)
Technique: DHFR protein complementation
Medium: yeast
Setting: single substitutions, most at no-binding floor
Relative to: wild-type JUN-FOS pair
Direction: higher = stronger binding
Parent: JUN, bZIP domain (human); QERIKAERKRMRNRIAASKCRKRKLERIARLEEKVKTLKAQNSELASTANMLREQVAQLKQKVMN; partner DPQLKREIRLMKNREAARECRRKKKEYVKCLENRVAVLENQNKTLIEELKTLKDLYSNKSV
Change	binding fitness [natural log]
L52Y	-1.49
A57W	-1.39
A57N	-1.51
E44A	-1.49
L38P	-1.53
A49T	-1.58
L31T	-1.47
A40P	-1.56
A46S	-1.51
Q41E	-1.44
A40K	-1.54
L52G	-1.53
T37N	-1.53
A40G	-1.54

A few entries again (series 4):
Change	normalised enrichment score
R5C	-0.127
F11A	0.525
N2Y	0.474
N2K	1.28
N6Y	-0.292
A3G	0.573
N6K	0.0555
S9E	0.2
